Measurements collected from several papers.
Numbered parts are unrelated; each lists some results of a single study. “And” joins repeats or separate records; there may be more than shown.
Chain of UniProt P09769 (whole entry, looked up): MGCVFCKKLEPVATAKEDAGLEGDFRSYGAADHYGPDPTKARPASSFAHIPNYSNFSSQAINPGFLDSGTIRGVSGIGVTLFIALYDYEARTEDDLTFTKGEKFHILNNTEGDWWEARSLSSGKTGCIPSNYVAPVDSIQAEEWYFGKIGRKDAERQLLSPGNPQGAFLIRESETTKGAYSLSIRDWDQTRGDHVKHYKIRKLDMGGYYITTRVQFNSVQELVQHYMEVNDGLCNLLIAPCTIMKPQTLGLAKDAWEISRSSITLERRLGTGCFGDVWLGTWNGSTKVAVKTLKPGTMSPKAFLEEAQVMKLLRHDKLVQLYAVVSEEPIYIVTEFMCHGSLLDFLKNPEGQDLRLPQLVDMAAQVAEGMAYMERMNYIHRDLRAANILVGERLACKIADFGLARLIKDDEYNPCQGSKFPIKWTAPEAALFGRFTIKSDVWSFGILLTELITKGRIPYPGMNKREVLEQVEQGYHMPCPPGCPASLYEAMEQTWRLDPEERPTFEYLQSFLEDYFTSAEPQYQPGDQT
Chain of UniProt P35916 (whole entry, looked up): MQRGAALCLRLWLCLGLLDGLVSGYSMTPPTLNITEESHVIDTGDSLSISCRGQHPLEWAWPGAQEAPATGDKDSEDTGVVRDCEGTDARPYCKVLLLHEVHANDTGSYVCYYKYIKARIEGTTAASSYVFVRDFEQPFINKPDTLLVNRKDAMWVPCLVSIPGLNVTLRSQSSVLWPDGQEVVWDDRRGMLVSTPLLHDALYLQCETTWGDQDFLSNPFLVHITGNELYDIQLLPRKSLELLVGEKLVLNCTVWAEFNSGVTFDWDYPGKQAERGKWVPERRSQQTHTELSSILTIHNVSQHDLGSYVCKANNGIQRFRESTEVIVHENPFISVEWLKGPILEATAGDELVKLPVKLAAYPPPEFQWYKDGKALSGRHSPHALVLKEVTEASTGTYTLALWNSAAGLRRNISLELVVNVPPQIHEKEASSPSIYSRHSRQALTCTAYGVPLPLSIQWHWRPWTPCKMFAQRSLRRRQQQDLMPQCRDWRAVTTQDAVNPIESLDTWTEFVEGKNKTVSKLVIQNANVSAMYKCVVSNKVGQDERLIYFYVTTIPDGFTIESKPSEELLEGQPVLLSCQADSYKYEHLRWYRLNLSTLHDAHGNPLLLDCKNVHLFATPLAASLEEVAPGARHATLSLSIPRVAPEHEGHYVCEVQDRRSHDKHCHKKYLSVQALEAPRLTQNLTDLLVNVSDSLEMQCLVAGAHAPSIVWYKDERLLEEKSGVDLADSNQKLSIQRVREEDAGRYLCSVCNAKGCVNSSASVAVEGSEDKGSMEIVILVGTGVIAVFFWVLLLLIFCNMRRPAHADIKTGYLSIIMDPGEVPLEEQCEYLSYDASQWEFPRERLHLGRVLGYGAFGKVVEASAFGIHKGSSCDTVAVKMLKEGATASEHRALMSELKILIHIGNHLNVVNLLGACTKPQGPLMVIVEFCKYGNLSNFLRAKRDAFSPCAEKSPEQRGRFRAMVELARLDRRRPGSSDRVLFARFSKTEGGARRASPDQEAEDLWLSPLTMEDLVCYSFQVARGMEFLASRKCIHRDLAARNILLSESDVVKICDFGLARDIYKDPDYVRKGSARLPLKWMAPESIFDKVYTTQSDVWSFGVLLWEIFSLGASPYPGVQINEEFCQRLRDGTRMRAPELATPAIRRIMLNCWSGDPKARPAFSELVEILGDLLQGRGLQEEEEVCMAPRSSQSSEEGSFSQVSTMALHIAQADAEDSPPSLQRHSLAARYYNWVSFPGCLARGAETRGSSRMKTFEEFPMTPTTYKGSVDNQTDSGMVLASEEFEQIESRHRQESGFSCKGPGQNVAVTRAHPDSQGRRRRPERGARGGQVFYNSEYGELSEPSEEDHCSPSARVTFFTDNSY
Chain of UniProt Q96Q40 (whole entry, looked up): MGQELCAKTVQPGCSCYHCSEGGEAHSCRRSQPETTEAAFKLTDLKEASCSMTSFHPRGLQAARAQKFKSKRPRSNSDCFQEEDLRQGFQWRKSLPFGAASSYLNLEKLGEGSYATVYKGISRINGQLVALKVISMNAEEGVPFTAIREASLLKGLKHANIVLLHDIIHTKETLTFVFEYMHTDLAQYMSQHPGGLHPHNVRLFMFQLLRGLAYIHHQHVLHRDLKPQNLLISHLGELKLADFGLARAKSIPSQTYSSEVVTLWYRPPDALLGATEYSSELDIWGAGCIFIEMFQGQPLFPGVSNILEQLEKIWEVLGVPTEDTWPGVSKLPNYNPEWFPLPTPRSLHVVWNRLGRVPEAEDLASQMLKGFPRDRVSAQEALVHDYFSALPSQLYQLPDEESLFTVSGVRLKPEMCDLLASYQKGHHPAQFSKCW
Chain of UniProt Q8NG66 (whole entry, looked up): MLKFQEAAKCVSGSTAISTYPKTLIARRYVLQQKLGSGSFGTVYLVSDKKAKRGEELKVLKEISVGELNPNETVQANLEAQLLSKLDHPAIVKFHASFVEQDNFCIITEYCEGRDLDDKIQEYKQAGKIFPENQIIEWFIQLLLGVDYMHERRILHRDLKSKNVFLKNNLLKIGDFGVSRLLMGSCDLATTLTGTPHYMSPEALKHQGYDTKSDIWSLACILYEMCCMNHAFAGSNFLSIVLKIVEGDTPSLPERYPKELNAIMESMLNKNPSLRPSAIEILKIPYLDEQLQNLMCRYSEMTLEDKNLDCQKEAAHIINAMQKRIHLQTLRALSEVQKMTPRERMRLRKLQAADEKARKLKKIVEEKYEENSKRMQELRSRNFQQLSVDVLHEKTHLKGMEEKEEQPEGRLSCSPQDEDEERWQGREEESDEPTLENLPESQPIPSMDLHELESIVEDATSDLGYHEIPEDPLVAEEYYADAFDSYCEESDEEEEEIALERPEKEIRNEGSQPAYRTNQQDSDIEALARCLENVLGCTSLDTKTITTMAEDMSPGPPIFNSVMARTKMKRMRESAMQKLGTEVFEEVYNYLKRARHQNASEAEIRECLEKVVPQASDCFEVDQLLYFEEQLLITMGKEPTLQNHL
Chain of UniProt Q86Z02 (whole entry, looked up): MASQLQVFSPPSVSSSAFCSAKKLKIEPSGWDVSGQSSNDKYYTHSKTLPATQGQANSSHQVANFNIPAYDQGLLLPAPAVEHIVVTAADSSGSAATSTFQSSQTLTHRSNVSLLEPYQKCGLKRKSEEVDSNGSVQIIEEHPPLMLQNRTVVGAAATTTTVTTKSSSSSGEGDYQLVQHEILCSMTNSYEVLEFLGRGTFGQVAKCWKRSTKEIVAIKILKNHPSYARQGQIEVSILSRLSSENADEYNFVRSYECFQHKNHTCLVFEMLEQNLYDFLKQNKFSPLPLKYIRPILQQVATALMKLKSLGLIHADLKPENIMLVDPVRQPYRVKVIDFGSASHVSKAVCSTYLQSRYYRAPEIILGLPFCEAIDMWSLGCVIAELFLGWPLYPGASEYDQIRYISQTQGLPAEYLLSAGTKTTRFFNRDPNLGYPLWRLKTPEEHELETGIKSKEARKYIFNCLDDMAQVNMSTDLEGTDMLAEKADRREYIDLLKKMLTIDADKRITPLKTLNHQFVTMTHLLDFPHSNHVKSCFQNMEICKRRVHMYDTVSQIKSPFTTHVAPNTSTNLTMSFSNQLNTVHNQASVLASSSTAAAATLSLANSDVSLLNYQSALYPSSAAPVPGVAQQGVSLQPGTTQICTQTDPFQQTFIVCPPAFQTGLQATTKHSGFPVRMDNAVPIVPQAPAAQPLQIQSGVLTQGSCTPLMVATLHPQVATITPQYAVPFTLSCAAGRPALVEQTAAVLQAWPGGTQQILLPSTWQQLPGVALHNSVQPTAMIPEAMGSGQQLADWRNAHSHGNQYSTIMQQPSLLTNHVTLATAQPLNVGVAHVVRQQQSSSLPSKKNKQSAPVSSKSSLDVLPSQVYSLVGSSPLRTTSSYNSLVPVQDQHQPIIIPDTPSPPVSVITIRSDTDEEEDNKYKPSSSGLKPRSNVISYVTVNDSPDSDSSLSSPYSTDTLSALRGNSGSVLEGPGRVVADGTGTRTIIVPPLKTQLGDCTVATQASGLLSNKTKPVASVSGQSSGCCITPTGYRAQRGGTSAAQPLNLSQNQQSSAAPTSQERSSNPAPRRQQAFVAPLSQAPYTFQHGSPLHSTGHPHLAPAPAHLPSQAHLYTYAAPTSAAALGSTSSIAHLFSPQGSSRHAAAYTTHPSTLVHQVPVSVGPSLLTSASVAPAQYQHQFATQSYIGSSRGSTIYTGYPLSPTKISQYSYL
Chain of UniProt P31749 (whole entry, looked up): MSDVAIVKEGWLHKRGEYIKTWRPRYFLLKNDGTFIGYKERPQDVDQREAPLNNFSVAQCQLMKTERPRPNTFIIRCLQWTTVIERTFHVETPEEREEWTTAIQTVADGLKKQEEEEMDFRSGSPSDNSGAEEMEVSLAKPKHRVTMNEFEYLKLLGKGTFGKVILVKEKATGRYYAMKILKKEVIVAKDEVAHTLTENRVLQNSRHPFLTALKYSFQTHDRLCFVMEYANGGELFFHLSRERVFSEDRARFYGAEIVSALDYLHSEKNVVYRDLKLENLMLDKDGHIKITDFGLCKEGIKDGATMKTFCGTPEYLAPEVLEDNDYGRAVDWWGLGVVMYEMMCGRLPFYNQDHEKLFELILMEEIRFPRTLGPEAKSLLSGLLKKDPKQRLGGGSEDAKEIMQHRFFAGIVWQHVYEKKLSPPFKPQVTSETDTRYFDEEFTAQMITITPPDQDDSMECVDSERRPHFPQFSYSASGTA
Chain of UniProt Q00526 (whole entry, looked up): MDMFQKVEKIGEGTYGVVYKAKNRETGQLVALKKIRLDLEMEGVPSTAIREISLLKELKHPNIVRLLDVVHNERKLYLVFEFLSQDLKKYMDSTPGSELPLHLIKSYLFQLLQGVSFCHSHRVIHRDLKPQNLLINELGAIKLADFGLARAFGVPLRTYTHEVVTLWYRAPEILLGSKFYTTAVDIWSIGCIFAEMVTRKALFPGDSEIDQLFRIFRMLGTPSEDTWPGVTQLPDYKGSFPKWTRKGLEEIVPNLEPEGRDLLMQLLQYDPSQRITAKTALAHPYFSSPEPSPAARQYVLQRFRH

Set 1 — technique: competition with immobilised ligand; concentration: 1 µM
Structure (SMILES): COc1ccc2c(c1)O[C@@H](c1ccc(OC)c(OC)c1)C[C@H]2NC(=O)C1(c2ccc3c(c2)OC(F)(F)O3)CC1
target	test	remaining binding
Casein kinase II subunit alpha (CSNK2A1, Homo sapiens, UniProt P68400)	cell-free assay	94%
Dual specificity protein kinase CLK2 (CLK2, Homo sapiens, UniProt P49760)	cell-free assay	96%
Interleukin-1 receptor-associated kinase 3 (IRAK3, Homo sapiens, UniProt Q9Y616)	cell-free assay	85%
Homeodomain-interacting protein kinase 2 (HIPK2, Homo sapiens, UniProt Q9H2X6)	cell-free assay	96%
Serine/threonine-protein kinase 38 (STK38, Homo sapiens, UniProt Q15208)	cell-free assay	91%
Macrophage colony-stimulating factor 1 receptor, autoinhibited (CSF1R, Homo sapiens, UniProt P07333)	cell-free assay	82%
Phosphatidylinositol 4,5-bisphosphate 3-kinase catalytic subunit alpha isoform (PIK3CA, Homo sapiens, UniProt P42336)	cell-free assay	86%
Phosphatidylinositol 4-phosphate 5-kinase type-1 alpha (PIP5K1A, Homo sapiens, UniProt Q99755)	cell-free assay	72%
Cyclin-dependent kinase 15 (CDK15, Homo sapiens, UniProt Q96Q40)	cell-free assay	100%
Mitogen-activated protein kinase 12 (MAPK12, Homo sapiens, UniProt P53778)	cell-free assay	100%
Mitogen-activated protein kinase kinase kinase 3 (MAP3K3, Homo sapiens, UniProt Q99759)	cell-free assay	84%
Serine/threonine-protein kinase Nek2 (NEK2, Homo sapiens, UniProt P51955)	cell-free assay	97%
Tyrosine-protein kinase Tec (TEC, Homo sapiens, UniProt P42680)	binding	89%
Serine/threonine-protein kinase LATS1 (LATS1, Homo sapiens, UniProt O95835)	cell-free assay	92%

Set 2 — observed: enzyme activity; mode: inhibitor; concentration: 0.5 µM; relative to: control
Structure (SMILES): Nc1[nH]nc2nnc(-c3c(-c4ccccc4)nn4ccccc34)cc12
target	remaining activity [%]
Tyrosine-protein kinase ITK/TSK (ITK, Homo sapiens, UniProt Q08881)	90.8
Serine/threonine-protein kinase TAO3 (TAOK3, Homo sapiens, UniProt Q9H2K8)	101
ALK tyrosine kinase receptor (ALK, Homo sapiens, UniProt Q9UM73)	108
RAC-alpha serine/threonine-protein kinase (AKT1, Homo sapiens, UniProt P31749)	98
Megakaryocyte-associated tyrosine-protein kinase (MATK, Homo sapiens, UniProt P42679)	95.6
MAP/microtubule affinity-regulating kinase 3 (MARK3, Homo sapiens, UniProt P27448)	99.3
Proto-oncogene tyrosine-protein kinase Src (SRC, Homo sapiens, UniProt P12931)	100
Tyrosine-protein kinase Fgr (FGR, Homo sapiens, UniProt P09769)	92.9
Tyrosine-protein kinase Fer (FER, Homo sapiens, UniProt P16591)	90.8
cAMP-dependent protein kinase catalytic subunit PRKX (PRKX, Homo sapiens, UniProt P51817)	101
Serine/threonine-protein kinase 25 (STK25, Homo sapiens, UniProt O00506)	84.2
Serine/threonine-protein kinase Nek11 (NEK11, Homo sapiens, UniProt Q8NG66)	95.1
Serine/threonine-protein kinase MRCK alpha (CDC42BPA, Homo sapiens, UniProt Q5VT25)	89.7
LIM domain kinase 1 (LIMK1, Homo sapiens, UniProt P53667)	98.2
PAS domain-containing serine/threonine-protein kinase (PASK, Homo sapiens, UniProt Q96RG2)	99.8
Serine/threonine-protein kinase NLK (NLK, Homo sapiens, UniProt Q9UBE8)	102
Insulin receptor (INSR, Homo sapiens, UniProt P06213)	78.3
Vascular endothelial growth factor receptor 3 (FLT4, Homo sapiens, UniProt P35916)	89.9
Cyclin-dependent kinase 3, with cyclin E (CDK3, Homo sapiens, UniProt Q00526)	96.8
Tyrosine-protein kinase Fyn (FYN, Homo sapiens, UniProt P06241)	95
Homeodomain-interacting protein kinase 1 (HIPK1, Homo sapiens, UniProt Q86Z02)	99.7
Serine/threonine-protein kinase N1 (PKN1, Homo sapiens, UniProt Q16512)	98.2

Set 3 — organism: Leishmania donovani; strain: DD8; matrix: promastigotes
Structure (SMILES): C[C@@H]1[C@H](O)[C@@H](C)/C=C/C=C/C=C/C=C/C=C/C=C/C=C/[C@H](O[C@@H]2O[C@H](C)[C@@H](O)[C@H](N)[C@@H]2O)C[C@@H]2O[C@](O)(C[C@@H](O)C[C@@H](O)[C@H](O)CC[C@@H](O)C[C@@H](O)CC(=O)O[C@H]1C)C[C@H](O)[C@H]2C(=O)O
setting	promastigote number
16660 µM, 72 h	1590 and 1250
16660 µM, 48 h	1550 and 1560
660 µM, 72 h	58400 and 98500
33330 µM, 24 h	1470 and 1480
330 µM, 24 h	845000 and 856000

Set 4 — cell line: mouse MPNST tumor cells; technique: high-content nuclear imaging; measured: cell number; concentration: 10 µM; time: 12 h; notes: mean of 2 replicates; relative to: plate mean; direction: higher = more cells
SMILES	nuclei count
CC[N+](CC)(CC)CCOc1cccc(OCC[N+](CC)(CC)CC)c1OCC[N+](CC)(CC)CC	0.465 z-score
O=C(Nc1ccc(S(=O)(=O)Nc2nccs2)cc1)C(c1ccccc1)c1ccccc1	2.21 z-score
CCCSc1ccc2[nH]c(NC(=O)OC)nc2c1	-4.97 z-score and -0.934 z-score
COc1cccc(CCc2ccccc2OCC(CN(C)C)OC(=O)CCC(=O)O)c1 (stereo not shown)	2.25 z-score
Clc1ccc(C(Cn2ccnc2)OCc2csc3c(Cl)cccc23)c(Cl)c1 (stereo not shown)	1.55 z-score

Repeated from above (set 2):
target	remaining activity [%]
Serine/threonine-protein kinase TAO3 (TAOK3, Homo sapiens, UniProt Q9H2K8)	101
ALK tyrosine kinase receptor (ALK, Homo sapiens, UniProt Q9UM73)	108
RAC-alpha serine/threonine-protein kinase (AKT1, Homo sapiens, UniProt P31749)	98
Megakaryocyte-associated tyrosine-protein kinase (MATK, Homo sapiens, UniProt P42679)	95.6
MAP/microtubule affinity-regulating kinase 3 (MARK3, Homo sapiens, UniProt P27448)	99.3
